Measurements pooled from the literature.
Compare with care: the assays were run in different laboratories.

SMILES | system | setting | bioavailability
CCC1(CC)CC(=O)N(C2CCOc3ccc(C(=O)NC4CC(C)(C)Oc5ccccc54)cc32)C(=N)N1 (centres unmarked) | male Wistar rat, plasma | oral | 20.7%
COC1C(c2ccc(Cl)c(Cc3ccc(OC4CCOC4)cc3)c2)OC(CO)C(O)C1O (centres unmarked) | Sprague-Dawley rat, plasma | oral, 5 mg/kg | 111%
COc1cc(OC)c2c(=O)cc(-c3cc(C)c(OCCCN4CCN(C)CC4)c(C)c3)oc2c1 | male Sprague-Dawley rat, plasma | oral, 20 mg/kg, single dose | 77.6%
COC(=O)C1=CNC=C(C(=O)OC)C1c1ccc(F)c(C(F)(F)F)c1 | male Sprague-Dawley rat, plasma | oral, 50 mg/kg | 44.1%
N#Cc1ccnc(N2C(=O)CC[C@H]2C(=O)N(c2cncc(F)c2)[C@H](C(=O)NC2CC(F)(F)C2)c2ccccc2Cl)c1 | Sprague-Dawley rat, plasma | oral, 10 mg/kg | 42%
C[C@@H](CO)NC(=O)c1cc(-c2ccc(Cl)cc2)nn(-c2cnn(C)c2)c1=O | male Wistar rat, plasma | oral | 54%
O=c1c(-c2ccc(Cl)c(CN3CCOCC3)c2)coc2cc(O)ccc12 | male Sprague-Dawley rat, plasma | oral, 10 mg/kg | 16%
CCC(CC)n1c(Cc2cccs2)nc2cc(C(=O)N[C@@H](CC(=O)O)c3ccccc3)ccc21 | male Sprague-Dawley rat, plasma | intraperitoneal, 10 mg/kg | 65.7%
N#Cc1ccnc(N2C(=O)CC[C@H]2C(=O)N(c2cc(F)cc(F)c2)[C@H](C(=O)NC2CC(F)(F)C2)c2ccccc2Cl)c1 (stereo in doubt) | Sprague-Dawley rat, plasma | oral, 10 mg/kg | 44%
CN1CCC[C@@H]1C(=O)N[C@@H](Cc1ccc(-c2ccccc2)cc1)B(O)O | male Sprague-Dawley rat, plasma | oral, 1 mg/kg | 50%
CCC1(CC)CC(=O)N(C2c3cc(C(=O)NC4c5ccccc5CC4O)ccc3OC2(C)COC)C(=N)N1 (centres unmarked) | male Wistar rat, plasma | oral | 26%
Cc1cccc(Cn2ncc3c4cc(F)c(CN(C)C)cc4n(C)c3c2=O)n1 | Sprague-Dawley rat, plasma | oral, 10 mg/kg | 33%
CC(=Nc1ccc(N)cc1)N(C)C | male Sprague-Dawley rat, plasma | oral, 200 mg/kg | 99.5%
OCC1OC(n2cnc3c(NCc4ccc(Br)s4)ncnc32)C(O)C1O (centres unmarked) | male Sprague-Dawley rat, blood | oral | 40 to 49%
O=C(Nc1cc(-c2ccnc3[nH]ccc23)c(Cl)cn1)[C@H]1CCC[C@@H](NC(=O)C(F)(F)F)C1 | rat, plasma | oral | 16.5%
Cc1cc2c(cc1O)C=C1C=CC(=O)C(C)(C)[C@H]1CC2 | male Sprague-Dawley rat, plasma | oral, 20 mg/kg | 0.75%
Cc1[nH]nc2c1N=C(c1ccccc1Cl)c1cnc(N3CCOCC3)cc1N2 | male Sprague-Dawley rat, plasma | oral, 5 mg/kg | 57%

Repeated from above:
SMILES | system | setting | bioavailability
C[C@@H](CO)NC(=O)c1cc(-c2ccc(Cl)cc2)nn(-c2cnn(C)c2)c1=O | male Wistar rat, plasma | oral | 54%
